Results gathered from unrelated publications.
Compare with care: the assays were run in different laboratories. Numbers after ± are the reported error.
Tripartite terminase subunit 3 C-terminal nuclease domain: Tripartite terminase subunit 3, C-terminal nuclease domain (Human betaherpesvirus 5, UniProt P16732)
Sequence of UniProt P16732 (whole entry, looked up): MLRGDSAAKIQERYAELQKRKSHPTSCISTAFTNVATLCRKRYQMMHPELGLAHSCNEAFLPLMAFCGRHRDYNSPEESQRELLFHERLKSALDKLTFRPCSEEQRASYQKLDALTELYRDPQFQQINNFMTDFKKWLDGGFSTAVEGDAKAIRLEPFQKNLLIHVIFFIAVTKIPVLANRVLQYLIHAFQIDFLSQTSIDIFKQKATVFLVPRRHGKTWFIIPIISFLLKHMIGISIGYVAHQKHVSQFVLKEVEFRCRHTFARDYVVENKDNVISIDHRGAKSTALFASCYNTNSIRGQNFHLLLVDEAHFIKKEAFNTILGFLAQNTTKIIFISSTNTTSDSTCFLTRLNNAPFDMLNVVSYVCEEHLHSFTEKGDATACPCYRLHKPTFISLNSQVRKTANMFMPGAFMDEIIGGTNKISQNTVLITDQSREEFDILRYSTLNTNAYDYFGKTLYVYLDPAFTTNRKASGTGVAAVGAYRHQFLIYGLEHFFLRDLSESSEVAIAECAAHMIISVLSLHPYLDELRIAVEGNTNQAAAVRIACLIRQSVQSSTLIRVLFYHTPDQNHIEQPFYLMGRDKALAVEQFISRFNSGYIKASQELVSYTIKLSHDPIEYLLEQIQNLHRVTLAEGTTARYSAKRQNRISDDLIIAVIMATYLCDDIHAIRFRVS
APP: Amyloid-beta precursor protein (APP, Homo sapiens, UniProt P05067)
Sequence of UniProt P06935 (whole entry, looked up): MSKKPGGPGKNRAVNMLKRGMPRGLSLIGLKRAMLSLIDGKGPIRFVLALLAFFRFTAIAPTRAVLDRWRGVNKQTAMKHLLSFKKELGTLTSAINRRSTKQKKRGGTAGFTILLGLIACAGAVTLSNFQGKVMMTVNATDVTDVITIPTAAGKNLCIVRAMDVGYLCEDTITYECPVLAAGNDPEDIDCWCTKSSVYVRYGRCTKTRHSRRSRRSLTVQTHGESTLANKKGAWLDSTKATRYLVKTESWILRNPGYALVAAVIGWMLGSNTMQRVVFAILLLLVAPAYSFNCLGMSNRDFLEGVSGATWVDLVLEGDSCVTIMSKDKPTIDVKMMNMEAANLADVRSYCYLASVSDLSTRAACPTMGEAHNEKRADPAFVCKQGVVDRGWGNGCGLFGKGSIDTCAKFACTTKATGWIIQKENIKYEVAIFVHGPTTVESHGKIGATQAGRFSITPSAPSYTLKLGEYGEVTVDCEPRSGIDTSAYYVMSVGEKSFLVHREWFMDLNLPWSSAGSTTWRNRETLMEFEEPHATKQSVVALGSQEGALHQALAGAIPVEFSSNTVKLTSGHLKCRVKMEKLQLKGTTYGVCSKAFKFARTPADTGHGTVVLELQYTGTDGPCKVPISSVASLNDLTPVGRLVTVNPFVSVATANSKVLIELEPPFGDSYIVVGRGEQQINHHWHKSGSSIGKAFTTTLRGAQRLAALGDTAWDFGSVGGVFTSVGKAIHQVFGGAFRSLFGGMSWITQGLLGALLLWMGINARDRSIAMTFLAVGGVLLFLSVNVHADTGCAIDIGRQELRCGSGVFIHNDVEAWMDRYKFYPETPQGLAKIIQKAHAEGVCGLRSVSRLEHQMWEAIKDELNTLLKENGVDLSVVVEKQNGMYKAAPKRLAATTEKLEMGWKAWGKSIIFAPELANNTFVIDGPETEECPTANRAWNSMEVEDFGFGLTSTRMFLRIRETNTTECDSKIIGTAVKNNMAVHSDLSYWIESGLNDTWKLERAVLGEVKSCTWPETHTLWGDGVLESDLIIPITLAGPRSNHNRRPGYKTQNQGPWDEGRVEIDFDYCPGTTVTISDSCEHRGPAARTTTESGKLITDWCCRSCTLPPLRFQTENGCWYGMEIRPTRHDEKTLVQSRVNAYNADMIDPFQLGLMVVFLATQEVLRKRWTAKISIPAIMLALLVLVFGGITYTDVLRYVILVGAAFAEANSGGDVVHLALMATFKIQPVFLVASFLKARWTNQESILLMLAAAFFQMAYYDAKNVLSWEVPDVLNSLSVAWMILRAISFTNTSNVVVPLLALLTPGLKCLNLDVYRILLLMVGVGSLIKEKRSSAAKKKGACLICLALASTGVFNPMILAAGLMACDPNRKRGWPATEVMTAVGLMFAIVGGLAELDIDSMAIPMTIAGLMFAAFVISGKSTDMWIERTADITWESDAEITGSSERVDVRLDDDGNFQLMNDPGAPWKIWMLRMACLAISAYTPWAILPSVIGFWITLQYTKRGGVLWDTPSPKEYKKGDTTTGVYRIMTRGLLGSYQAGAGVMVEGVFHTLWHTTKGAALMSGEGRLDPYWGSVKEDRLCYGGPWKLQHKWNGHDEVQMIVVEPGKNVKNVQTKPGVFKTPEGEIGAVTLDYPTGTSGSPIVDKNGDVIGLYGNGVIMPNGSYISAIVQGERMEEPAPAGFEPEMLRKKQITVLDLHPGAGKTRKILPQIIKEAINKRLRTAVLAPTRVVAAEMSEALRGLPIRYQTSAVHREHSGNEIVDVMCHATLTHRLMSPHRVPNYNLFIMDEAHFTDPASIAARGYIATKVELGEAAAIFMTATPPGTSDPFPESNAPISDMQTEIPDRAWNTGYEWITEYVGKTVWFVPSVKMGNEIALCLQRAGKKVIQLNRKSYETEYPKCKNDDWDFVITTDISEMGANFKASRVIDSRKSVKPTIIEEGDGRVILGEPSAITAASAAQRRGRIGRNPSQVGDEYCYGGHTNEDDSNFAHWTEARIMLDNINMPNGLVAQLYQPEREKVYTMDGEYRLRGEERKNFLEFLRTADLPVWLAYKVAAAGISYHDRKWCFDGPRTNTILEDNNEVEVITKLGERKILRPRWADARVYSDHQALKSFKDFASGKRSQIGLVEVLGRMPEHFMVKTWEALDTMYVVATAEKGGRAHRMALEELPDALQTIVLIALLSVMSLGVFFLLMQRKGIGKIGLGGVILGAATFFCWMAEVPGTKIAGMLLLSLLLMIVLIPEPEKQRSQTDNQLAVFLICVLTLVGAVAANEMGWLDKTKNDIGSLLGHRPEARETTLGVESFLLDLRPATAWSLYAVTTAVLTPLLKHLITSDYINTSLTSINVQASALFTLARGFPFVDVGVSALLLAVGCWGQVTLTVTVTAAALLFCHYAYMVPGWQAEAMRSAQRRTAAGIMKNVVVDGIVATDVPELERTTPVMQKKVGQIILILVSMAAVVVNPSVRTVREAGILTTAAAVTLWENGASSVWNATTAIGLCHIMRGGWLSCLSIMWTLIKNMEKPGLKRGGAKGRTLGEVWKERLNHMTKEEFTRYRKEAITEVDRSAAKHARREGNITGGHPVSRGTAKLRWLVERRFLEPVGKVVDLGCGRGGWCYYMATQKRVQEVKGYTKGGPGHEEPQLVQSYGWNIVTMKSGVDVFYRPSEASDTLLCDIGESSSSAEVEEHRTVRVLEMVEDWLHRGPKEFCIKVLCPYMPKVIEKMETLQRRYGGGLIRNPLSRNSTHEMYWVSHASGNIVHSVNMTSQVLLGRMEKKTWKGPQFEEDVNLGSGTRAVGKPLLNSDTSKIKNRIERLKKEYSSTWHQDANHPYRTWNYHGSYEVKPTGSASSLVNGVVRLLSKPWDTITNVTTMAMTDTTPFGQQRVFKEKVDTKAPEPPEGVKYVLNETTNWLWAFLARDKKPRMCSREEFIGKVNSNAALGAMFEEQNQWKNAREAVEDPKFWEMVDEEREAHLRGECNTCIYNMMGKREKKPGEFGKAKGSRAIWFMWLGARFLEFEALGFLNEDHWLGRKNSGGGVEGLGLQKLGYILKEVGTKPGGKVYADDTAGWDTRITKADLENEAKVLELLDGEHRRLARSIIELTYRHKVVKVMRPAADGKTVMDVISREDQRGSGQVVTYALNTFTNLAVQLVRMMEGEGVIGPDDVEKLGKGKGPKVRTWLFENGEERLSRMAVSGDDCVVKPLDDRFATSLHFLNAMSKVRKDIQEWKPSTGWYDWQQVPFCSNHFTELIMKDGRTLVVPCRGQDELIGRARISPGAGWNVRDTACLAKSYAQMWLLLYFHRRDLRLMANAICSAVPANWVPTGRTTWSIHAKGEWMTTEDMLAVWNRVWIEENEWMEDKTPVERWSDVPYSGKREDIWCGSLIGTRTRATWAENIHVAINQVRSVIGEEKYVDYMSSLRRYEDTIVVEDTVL
Sequence of UniProt P05067 (whole entry, looked up): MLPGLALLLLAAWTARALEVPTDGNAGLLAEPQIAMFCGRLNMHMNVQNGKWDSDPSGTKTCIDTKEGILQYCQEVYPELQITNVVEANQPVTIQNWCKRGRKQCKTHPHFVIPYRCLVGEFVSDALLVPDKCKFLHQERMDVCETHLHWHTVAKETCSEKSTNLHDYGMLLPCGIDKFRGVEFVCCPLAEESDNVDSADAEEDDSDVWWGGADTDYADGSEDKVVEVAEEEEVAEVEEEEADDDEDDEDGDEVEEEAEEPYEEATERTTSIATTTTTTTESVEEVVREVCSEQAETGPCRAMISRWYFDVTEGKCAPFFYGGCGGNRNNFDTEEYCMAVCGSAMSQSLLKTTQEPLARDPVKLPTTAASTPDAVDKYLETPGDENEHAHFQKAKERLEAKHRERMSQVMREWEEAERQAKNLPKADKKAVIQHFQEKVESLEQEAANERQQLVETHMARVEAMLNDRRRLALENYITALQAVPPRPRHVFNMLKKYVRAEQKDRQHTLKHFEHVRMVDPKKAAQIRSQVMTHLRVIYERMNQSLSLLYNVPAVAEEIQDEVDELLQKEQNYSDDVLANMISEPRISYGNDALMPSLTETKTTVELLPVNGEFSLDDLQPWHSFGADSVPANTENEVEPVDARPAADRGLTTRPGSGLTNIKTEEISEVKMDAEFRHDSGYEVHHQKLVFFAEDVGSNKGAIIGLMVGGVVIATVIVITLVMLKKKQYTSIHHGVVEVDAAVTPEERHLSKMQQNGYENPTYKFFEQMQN
Sequence of UniProt P78417 (whole entry, looked up): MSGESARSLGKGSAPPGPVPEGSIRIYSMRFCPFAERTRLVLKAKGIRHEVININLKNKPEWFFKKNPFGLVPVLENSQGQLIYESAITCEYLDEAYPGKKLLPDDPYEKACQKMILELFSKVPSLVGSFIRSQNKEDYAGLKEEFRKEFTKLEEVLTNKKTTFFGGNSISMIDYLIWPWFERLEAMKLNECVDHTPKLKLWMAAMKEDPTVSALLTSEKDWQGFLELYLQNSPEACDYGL

Compound	tested on	test	test system	conditions	scale	measurement	result
CC(=O)N[C@H]1[C@H]([C@H](O)[C@H](O)CO)OC(C(=O)O)=C[C@@H]1N=[N+]=[N-]	Sialidase A (nanA, Streptococcus pneumoniae, UniProt P62575)			8 µM, pH 6		inhibition	3 ± 1.3%
COc1ccc(N2C(=O)N(c3c(C)cccc3Cl)Cc3cnc(Nc4ccc(C5CCN(C)CC5)cc4OC)nc32)nc1	TAOK3 (Homo sapiens, UniProt Q9H2K8)	kinase activity		0.5 µM		inhibition	9%
O=c1[nH]c2cc(-c3ccccc3)sc2c(=O)n1O	Tripartite terminase subunit 3 C-terminal nuclease domain	endonuclease activity, ELISA		20 µM, with: dsDNA		inhibition	97%
O=C(Nc1cccnn1)N1CCC(=Cc2cccc(Oc3ccc(C(F)(F)F)cn3)c2)CC1	dopamine D4.2 receptor, human	binding		10 µM, with: [3H]spiperone		inhibition	5%
Nc1ncnc2c1ncn2[C@@H]1O[C@H](C[C@@H](N)CC[C@H](N)C(=O)O)[C@@H](O)[C@H]1O	Genome polyprotein, NS5 methyltransferase domain (Zika virus, UniProt Q32ZE1)	NS5 enzyme activity, inhibitor		50 µM		inhibition	98.2%
CN(C(=O)n1cnc(-c2ccc[n+]([O-])c2)c1)C1CCCCC1	AVPR2 (Homo sapiens, UniProt P30518)	radioligand binding		10 µM, with: [3H]arginine vasopressin		inhibition	14%
CO[C@H]1/C=C/O[C@@]2(C)Oc3c(C)c(O)c4c(O)c(c(/C=N/N5CCN(C)CC5)c(O)c4c3C2=O)NC(=O)/C(C)=C\C=C\[C@H](C)[C@H](O)[C@@H](C)[C@@H](O)[C@@H](C)[C@H](OC(C)=O)[C@@H]1C	GSTO1 (Homo sapiens, UniProt P78417)			5 µM		inhibition	61%
OB1OCc2cc(F)ccc21	Genome polyprotein, NS2B-NS3 protease (dengue virus type 2, UniProt P29990)	enzyme activity, FRET	dengue virus serotype 2	50 µM, with: substrate 50 µM		inhibition	≤ 10%
CN1CCN(c2cc(-c3ccncc3)c(-c3ccc4ccccc4c3)nn2)CC1	ADORA1 (Homo sapiens, UniProt P30542)	antagonist, FLIPR		10 µM		inhibition	7.9%
Nc1c2c(nc3c1C(c1cccc([N+](=O)[O-])c1)c1ccc(OCC(=O)c4ccc(Cl)cc4)cc1O3)CCCC2 (centres unmarked)	APP	Aβ42 self-aggregation, inhibitor, thioflavin T fluorescence		0.1 µM		inhibition	15%
FC(F)(F)c1cccc(Nc2nc(NCCOc3ccccc3)nc3[nH]cnc23)c1	Cyclin-dependent kinase 9, with cyclin T1 (CDK9, Homo sapiens, UniProt P50750)	Z'-LYTE or Adapta		5 µM		inhibition	6%
N#Cc1ccc(COc2cccc(C(=O)Nc3ccc4c(c3)B(O)OC4)c2)cc1	Genome polyprotein, NS2B-NS3 protease (West Nile virus, UniProt P06935)	enzyme activity, FRET		50 µM, with: substrate 50 µM		inhibition	≤ 10%
O=C(Nc1cnccc1Cl)N1CCN(Cc2ccc3c(c2)OC(F)(F)O3)CC1	ZAP70 (Homo sapiens, UniProt P43403)	kinase activity, inhibitor		50 µM, human, with: poly(Glu,Tyr)		inhibition	18%
Cc1csc2[nH]c(=O)n(O)c(=O)c12	Tripartite terminase subunit 3 C-terminal nuclease domain	endonuclease activity, ELISA		20 µM, with: dsDNA		inhibition	84%
COc1cccc(COc2cccc(C(=O)Nc3ccc4c(c3)B(O)OC4)c2)c1	Genome polyprotein, NS2B-NS3 protease (dengue virus type 2, UniProt P29990)	enzyme activity, FRET	dengue virus serotype 2	50 µM, with: substrate 50 µM		inhibition	14 ± 8%
COCc1c(-c2cc3cc(C)cc(OC)c3s2)c2c(N)ncnn2c1CN1CCNC(=O)C1	P2Y purinergic receptor	radioligand binding		10 µM		inhibition	8%
C[C@H]1N=C(c2ccccc2F)c2cc(Br)ccc2-n2cnc(C(=O)O)c21	peripheral benzodiazepine receptor	binding		10 µM		inhibition	18.3 ± 8.7%
C[C@H](C(=O)N[C@H]1COc2ccccc2[C@@H]1S(C)(=O)=O)c1ccc(F)cc1	Cyclin-dependent kinase 3, with cyclin E (CDK3, Homo sapiens, UniProt Q00526)	enzyme activity		10 µM, Eurofins selectivity panel		inhibition	-5%
O=C(Nc1ccccc1)Nc1ccc2c(c1)B(O)OC2	Genome polyprotein, NS2B-NS3 protease (West Nile virus, UniProt P06935)	enzyme activity, FRET		50 µM, with: substrate 50 µM		inhibition	≤ 10%

Compound	tested on	test	test system	conditions	scale	measurement	result
OC[C@H]1O[C@@H](n2ccc3c(SCc4ccc(Cl)cc4Cl)ncnc32)[C@H](O)[C@@H]1O	Toxoplasma gondii	[3H]uracil incorporation	human fibroblasts, adenosine kinase deficient	5 µM		survival	100%
O=C(c1ccc(Cl)cc1)N1CCN2C(=O)N(OC(=O)N3CCOc4ccccc43)C(=O)C2C1 (centres unmarked)	Fatty acid synthase (FASN, Homo sapiens, UniProt P49327)	MS-based ABPP	SW-620 conditioned medium	10 µM, 1 h, 37 °C	reference: compound over DMSO, lower = more inhibition	mean protein ratio	0.98
Nc1c2c(nc3c1C(c1cccc([N+](=O)[O-])c1)c1ccc(OS(=O)(=O)c4ccc(F)cc4)cc1O3)CCCC2 (centres unmarked)	APP	Aβ42 self-aggregation, inhibitor, thioflavin T fluorescence		10 µM		inhibition	82%
COc1cc(Nc2ncc(F)c(Nc3ccc4c(n3)NC(=O)C(C)(C)O4)n2)cc(OC)c1OC	GRK7 (Homo sapiens, UniProt Q8WTQ7)	KINOMEscan		10 µM		inhibition	49%
O=C(Nc1cccnn1)N1CCN([C@@H]2CCOc3cc(C(F)(F)F)ccc32)CC1	Cacna1b (Rattus norvegicus, UniProt Q02294)	binding		20 µM		inhibition	-7%
OC[C@H]1O[C@@H](n2ccc3c(SCc4ccc(Cl)c(Cl)c4)ncnc32)[C@H](O)[C@@H]1O	Toxoplasma gondii	[3H]uracil incorporation	human fibroblasts, adenosine kinase deficient	25 µM		survival	100%
Cn1cc(-c2cc(F)cc(N3CCn4c(cc5c4CCCC5)C3=O)c2CO)cc(Nc2ccc(N3CCN(C4COC4)CC3)cn2)c1=O	MAPK14 (Homo sapiens, UniProt Q16539)	kinase activity, inhibitor, SelectScreen		0.1 µM, with: ATP		inhibition	19%
CCN(CC)CCNC(=O)c1ccc(-c2nc(CN3CCc4ccccc43)c(C)o2)cc1	Vero-E6	CellTiter-Glo ATP		concentration not given, 72 h, retest 8-point duplicates	reference: DMSO 0%, hyamine -100%, more negative, more toxic	cytotoxicity efficacy	-10%
COc1cc2c3cc1Oc1cc(ccc1O)C[C@@H]1c4c(cc(OC)c(O)c4Oc4ccc(cc4)C[C@@H]3N(C)CC2)CC[N+]1(C)C	Chrnd/Chrna1/Chrne (Mus musculus, UniProt P02716+P04756+P20782)	end-plate current peak height, two-electrode voltage clamp	mouse hemidiaphragm	0.1 µM, AChE intact		inhibition	36%
COc1cccc(CNC(=O)C2CCN(Cc3cc4ccccc4n3Cc3ccccc3)CC2)c1OC	Vero-E6	CellTiter-Glo ATP		concentration not given, 72 h, retest 8-point duplicates	reference: DMSO 0%, hyamine -100%, more negative, more toxic	cytotoxicity efficacy	0%
Nc1ccncc1	Glutamate receptor 2 (Homo sapiens, UniProt P42262)	ion current, negative allosteric modulator, automated patch clamp	HEK293	30 µM		inhibition	16%
O=C(Nc1ccc2c(c1)B(O)OC2)c1cccc(NCc2ccccc2)c1	Genome polyprotein, NS2B-NS3 protease (West Nile virus, UniProt P06935)	enzyme activity, FRET		50 µM, with: substrate 50 µM		inhibition	21 ± 4%
Cc1cnc(Nc2ccc(OCCN3CCCC3)cc2)nc1Nc1cccc(S(=O)(=O)NC(C)(C)C)c1	human coronavirus OC43	virus-induced cell killing	MRC-5	maximum over 10 doses		maximum inhibition	0%
O=C(Nc1ccc2c(c1)B(O)OC2)c1cccc(Oc2ccccc2)c1	Genome polyprotein, NS2B-NS3 protease (dengue virus type 2, UniProt P29990)	enzyme activity, FRET	dengue virus serotype 2	50 µM, with: substrate 50 µM		inhibition	10 ± 3%
O=c1[nH]c2c(-c3ccccc3)csc2c(=O)n1O	Tripartite terminase subunit 3 C-terminal nuclease domain	endonuclease activity, ELISA		20 µM, with: dsDNA		inhibition	90%
O=C(Nc1ccc2c(c1)B(O)OC2)c1ccccc1OCc1ccccc1	Genome polyprotein, NS2B-NS3 protease (West Nile virus, UniProt P06935)	enzyme activity, FRET		50 µM, with: substrate 50 µM		inhibition	14 ± 7%
Nc1c2c(nc3c1C(c1ccc(Cl)c(Cl)c1)c1ccc(OCC(=O)c4ccccc4)cc1O3)CCCC2 (centres unmarked)	APP	Aβ42 self-aggregation, inhibitor, thioflavin T fluorescence		0.1 µM		inhibition	27%
CC(C(=O)Nc1ccc2c(c1)B(O)OC2)c1cccc(Oc2ccccc2)c1 (centres unmarked)	Genome polyprotein, NS2B-NS3 protease (West Nile virus, UniProt P06935)	enzyme activity, FRET		50 µM, with: substrate 50 µM		inhibition	≤ 10%
C[C@H]1CN(c2n[nH]c3nc(N[C@H]4CC[C@H](NS(=O)(=O)CCC(F)(F)F)CC4)ncc23)CCO1	HADHA (Homo sapiens, UniProt P40939)	inhibitor, Kinobeads competition profiling		0.8 µM	reference: vehicle	relative abundance	1.14

Repeated from above:
Compound	tested on	test	test system	conditions	scale	measurement	result
C[C@H](C(=O)N[C@H]1COc2ccccc2[C@@H]1S(C)(=O)=O)c1ccc(F)cc1	Cyclin-dependent kinase 3, with cyclin E (CDK3, Homo sapiens, UniProt Q00526)	enzyme activity		10 µM, Eurofins selectivity panel		inhibition	-5%
O=C(Nc1ccccc1)Nc1ccc2c(c1)B(O)OC2	Genome polyprotein, NS2B-NS3 protease (West Nile virus, UniProt P06935)	enzyme activity, FRET		50 µM, with: substrate 50 µM		inhibition	≤ 10%
OC[C@H]1O[C@@H](n2ccc3c(SCc4ccc(Cl)cc4Cl)ncnc32)[C@H](O)[C@@H]1O	Toxoplasma gondii	[3H]uracil incorporation	human fibroblasts, adenosine kinase deficient	5 µM		survival	100%
O=C(c1ccc(Cl)cc1)N1CCN2C(=O)N(OC(=O)N3CCOc4ccccc43)C(=O)C2C1 (centres unmarked)	Fatty acid synthase (FASN, Homo sapiens, UniProt P49327)	MS-based ABPP	SW-620 conditioned medium	10 µM, 1 h, 37 °C	reference: compound over DMSO, lower = more inhibition	mean protein ratio	0.98
Nc1c2c(nc3c1C(c1cccc([N+](=O)[O-])c1)c1ccc(OS(=O)(=O)c4ccc(F)cc4)cc1O3)CCCC2 (centres unmarked)	APP	Aβ42 self-aggregation, inhibitor, thioflavin T fluorescence		10 µM		inhibition	82%
COc1cc(Nc2ncc(F)c(Nc3ccc4c(n3)NC(=O)C(C)(C)O4)n2)cc(OC)c1OC	GRK7 (Homo sapiens, UniProt Q8WTQ7)	KINOMEscan		10 µM		inhibition	49%
